{"data": "Results of several laboratories", "note": "Compare with care: the assays were run in different laboratories."}
{"SMILES": "N#Cc1ccc2c(c1)[C@H]1CCCN(C(=O)c3ccc4[nH]cnc4c3)[C@H]1C2", "system": "human, plasma", "conditions": "oral, 80 mg once daily, steady state", "quantity": "half-life steady state", "result": "97.5 h"}
{"SMILES": "COc1ncc(-c2nc3c(n2C(C)C)[C@H](c2ccc(Cl)cc2)N(c2cc(Cl)cn(C)c2=O)C3=O)c(OC)n1", "system": "human, plasma", "conditions": "oral, 120 mg, C1D8, high-dose, median", "quantity": "half-life", "result": "5.5 h"}
{"SMILES": "Cc1nc(-c2ccc(OCC(C)C)c(C#N)c2)sc1C(=O)O", "system": "human, plasma", "conditions": "oral, 10 mg once daily, with: verinurad 5 mg", "quantity": "half-life", "result": "7.14 h"}
{"SMILES": "COC(=O)N[C@@H](C)CNc1nccc(-c2cn(C(C)C)nc2-c2cc(Cl)cc(NS(C)(=O)=O)c2F)n1", "system": "humans, plasma", "conditions": "oral, day 1, single dose, with: binimetinib", "quantity": "half-life geometric mean", "result": "3.77 h"}
{"SMILES": "O=C(COc1ccc(Cl)cc1)NC12CC(c3nnc([C@H]4C[C@@H](OC(F)(F)F)C4)o3)(C1)C2", "system": "healthy human volunteers fasted, plasma", "conditions": "oral, 800 mg single dose, arithmetic mean", "quantity": "half-life", "result": "44.6 h"}
{"SMILES": "Cc1cc(C)c(CNC(=O)c2cc(Cl)c3c(c2C)O[C@@](C)([C@H]2CC[C@H](N(C)C)CC2)O3)c(=O)[nH]1", "system": "human, plasma", "conditions": "oral, 200 mg, cycle 1 day 15", "quantity": "half-life total drug", "result": "11.1 h"}
{"SMILES": "Cc1cc(Nc2ncnc3ccc(NC4=NC(C)(CO)CO4)cc23)ccc1Oc1ccn2ncnc2c1 (stereo not drawn)", "system": "human, plasma", "conditions": "tucatinib, day 10, with: rifampin once daily", "quantity": "half-life (arithmetic mean)", "result": "8.25 h"}
{"SMILES": "CN1CCC(COc2cnc(-c3cccc(Cn4nc(-c5cccc(C#N)c5)ccc4=O)c3)nc2)CC1", "system": "human", "conditions": "with: itraconazole", "how to read": "baseline: compound alone", "quantity": "half-life increase", "result": "~27%"}
{"SMILES": "CO[C@H]1C[C@@H]2CC[C@@H](C)[C@@](O)(O2)C(=O)C(=O)N2CCCC[C@H]2C(=O)O[C@H]([C@H](C)C[C@@H]2CC[C@@H](OC(=O)NCCOCCOCCOCCOCCOCCOCCOCCOCCC(=O)N3CCc4cc(Cn5nc(-c6ccc7oc(N)nc7c6)c6c(N)ncnc65)ccc4C3)[C@H](OC)C2)C[C@@H](O)[C@H](C)/C=C(\\C)[C@@H](O)[C@@H](OC)C(=O)[C@H](C)C[C@H](C)/C=C/C=C/C=C/1C", "system": "human, plasma", "conditions": "intravenous, 16 mg, cycle 1 day 1, arithmetic mean", "quantity": "half-life", "result": "5.5 h"}
{"SMILES": "CC(C)(Sc1ccncc1-c1ccc(C#N)c2ccccc12)C(=O)O", "system": "human", "conditions": "oral, 5 mg once daily, with: febuxostat 0 mg", "quantity": "half-life", "result": "21.3 h"}
{"SMILES": "O=C(O)CCC(=O)O.[2H]C([2H])([2H])Oc1cc(C)c2[nH]ccc2c1CN1CC[C@@H](C2CC2)C[C@H]1c1ccc(C(=O)O)cc1", "test": "LC-MS/MS, mean", "system": "human, plasma", "conditions": "600 mg, single dose, fasting", "quantity": "half-life", "result": "38.5 h"}
{"SMILES": "COc1cc(C(=O)NC2CCN(C)CC2)c(F)cc1Nc1ncc(C(F)(F)F)c(Oc2cccc3c2C(=O)N(C)C3)n1", "system": "human, Taiwanese, plasma", "conditions": "oral, 200 mg once daily multiple dose, geometric mean", "quantity": "half-life steady state", "result": "19 h"}
{"note": "For quick reference, copied from above:"}
{"SMILES": "N#Cc1ccc2c(c1)[C@H]1CCCN(C(=O)c3ccc4[nH]cnc4c3)[C@H]1C2", "system": "human, plasma", "conditions": "oral, 80 mg once daily, steady state", "quantity": "half-life steady state", "result": "97.5 h"}
{"SMILES": "Cc1nc(-c2ccc(OCC(C)C)c(C#N)c2)sc1C(=O)O", "system": "human, plasma", "conditions": "oral, 10 mg once daily, with: verinurad 5 mg", "quantity": "half-life", "result": "7.14 h"}
